Published values from different studies.
Numbered parts are unrelated; each lists some results of a single study.

Set 1 — method: protein binding microarray; molecule type: double-stranded DNA, one strand shown; matrix: in vitro; concentration: not given; baseline: not given; reading: higher = stronger binding
Target: Histone acetyltransferase KAT6A, winged helix 2, GST fusion (KAT6A, Homo sapiens, UniProt Q92794, residues 85-181)
Notes: 8-mer, flanks averaged, mean of 2 arrays, mostly near background
Construct (chain): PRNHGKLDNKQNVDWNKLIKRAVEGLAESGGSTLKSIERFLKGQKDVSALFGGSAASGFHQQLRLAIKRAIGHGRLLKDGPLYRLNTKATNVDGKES
| Sequence | E-score |
| --- | --- |
| CACCGAGA | -0.0684 |
| GTGCTGCA | 7e-05 |
| AAAGAATT | 0.147 |
| TATCTCAA | 0.0324 |
| TACAGGCA | 0.0168 |
| AGATTTTG | 0.0977 |
| ACGAGCAT | -0.0757 |
| ACGGGTTA | -0.193 |
| CACATGAG | -0.155 |
| CACTAGAG | -0.0309 |
| CCGGTTAG | -0.0415 |
| CTGTTGCA | -0.00151 |
| CCCCCCGA | -0.0273 |
| ACTAAGTC | -0.146 |
| GTTACAAC | 0.05 |
| CGGTCAGC | 0.166 |
| CAAGTTCG | -0.00694 |
| TCAACCAA | 0.0567 |
| CGATGAAA | 0.00585 |
| ACCGTCAT | -0.112 |
| AGTTTATG | -0.00259 |
| ATCTAAGA | -0.0655 |
| TGGGGCAA | -0.109 |
| ATAGAAAC | 0.16 |
| CTTATCCA | -0.0783 |

Set 2 — method: universal PBM; molecule type: double-stranded DNA, one strand shown; matrix: in vitro; concentration: 600 nM; reading: higher = stronger binding
Target: Sal-like protein 4, full length isoform A (SALL4, Homo sapiens, UniProt Q9UJQ4, residues 1-1053)
UniProt Q9UJQ4, sequence (whole entry, looked up): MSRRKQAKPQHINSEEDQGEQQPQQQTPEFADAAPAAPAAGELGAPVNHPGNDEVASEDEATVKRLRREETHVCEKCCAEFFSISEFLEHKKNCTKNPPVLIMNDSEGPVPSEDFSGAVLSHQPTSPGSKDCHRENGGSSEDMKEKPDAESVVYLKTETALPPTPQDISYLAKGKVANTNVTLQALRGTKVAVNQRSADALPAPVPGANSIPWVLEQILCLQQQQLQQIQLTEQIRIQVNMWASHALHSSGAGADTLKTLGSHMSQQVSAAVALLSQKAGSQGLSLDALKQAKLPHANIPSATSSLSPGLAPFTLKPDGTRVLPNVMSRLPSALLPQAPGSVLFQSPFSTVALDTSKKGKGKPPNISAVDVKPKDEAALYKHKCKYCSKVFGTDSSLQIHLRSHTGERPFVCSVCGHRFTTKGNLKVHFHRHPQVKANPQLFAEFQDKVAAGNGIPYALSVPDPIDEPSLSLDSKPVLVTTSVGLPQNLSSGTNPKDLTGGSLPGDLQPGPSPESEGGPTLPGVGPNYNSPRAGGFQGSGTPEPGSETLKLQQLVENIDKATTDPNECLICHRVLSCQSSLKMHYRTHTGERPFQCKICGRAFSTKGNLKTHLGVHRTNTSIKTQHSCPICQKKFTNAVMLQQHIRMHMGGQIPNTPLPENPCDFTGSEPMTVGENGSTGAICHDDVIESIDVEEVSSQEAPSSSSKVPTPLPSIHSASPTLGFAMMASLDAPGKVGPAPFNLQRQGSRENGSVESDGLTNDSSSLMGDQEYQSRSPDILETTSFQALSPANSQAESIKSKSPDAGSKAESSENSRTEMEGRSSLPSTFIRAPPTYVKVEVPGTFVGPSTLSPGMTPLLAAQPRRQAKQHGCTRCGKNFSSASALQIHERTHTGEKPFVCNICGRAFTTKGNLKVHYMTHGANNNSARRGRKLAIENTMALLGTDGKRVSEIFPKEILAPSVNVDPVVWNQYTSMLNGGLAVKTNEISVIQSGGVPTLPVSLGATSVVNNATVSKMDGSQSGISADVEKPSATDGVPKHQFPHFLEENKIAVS
Notes: 8-mer, flanks averaged, mean of replicates
| Sequence | E-score |
| --- | --- |
| ACTGTTCA | -0.0617 |
| GTCTTACA | 0.132 |
| CGTGTTGC | -0.119 |
| CCAATGAG | -0.16 |
| CGAGTCCG | -0.0823 |
| AAGCAACC | -0.0495 |
| AGACGATA | 0.187 |
| TAGTTCAA | 0.0376 |
| GCGCGAAC | -0.289 |
| ACAGGCCC | -0.361 |
| TGCGAAAA | 0.21 |
| GCCAATAC | -0.00307 |
| AGCATGCA | -0.09 |
| ATCGTAAT | 0.254 |
| AAGTTTAG | 0.133 |
| AAGTGCCG | -0.172 |

Set 3 — method: RNA Bind-n-Seq; molecule type: RNA; matrix: in vitro; concentration: 365 nM; baseline: no-protein control; reading: higher = stronger binding
Target: RNA binding protein fox-1 homolog 2, RRM domain, GST-SBP tag (RBFOX2, Homo sapiens, UniProt O43251-10, residues 100-194)
Notes: natural RNA segment, single round, ends assumed
Shared flanks, not repeated: GGGAGUUCUACAGUCCGACGAUC … UGGAAUUCUCGGGUGCCAA
Target sequence (chain): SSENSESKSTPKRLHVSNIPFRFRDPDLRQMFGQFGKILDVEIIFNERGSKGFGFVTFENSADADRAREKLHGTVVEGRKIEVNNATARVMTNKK
| Sequence | RBNS enrichment (R) |
| --- | --- |
| AUCUUUCCUUUUUAAUGAAAACAUUAGCAUGUUAAUACCCCGUAUGAAUAAUGCCUGACAUUCAACAAUUGUGGAAAUAUGUUGGUAUGUUGCUGAACAUACAUACACCU | 0.326 |
| UGUGAGGAGCUGCUGGCUUGCAGUGCGCGUGCACGUGGAGAGCUGGUGCCCGGAGAUUGGACGGCCUGAUGCUCCCUCCCCUGCCCUGGUCCAGGGAAGCUGGCCGAGGG | 0.365 |
| AACUGGAAACACUUGAAAGGGGACCCCAGGGCCAGCUGUUUCAGGGGUUUCCUGGACCACCCACUGCUUCUCCCCAACCCUGAUGCGCUGACAUUCCCUUAGCACCAGCU | 0.292 |
| UCCCUGUGGAAUUGCCGAGAAAUCUAGCACCUUGCAUGCUGGAUCUGGGCUGCGGGGAGGCUCUUUUUCUCCCUGGCCUCCAGUGCCCACCAGGAGGAUCUGCGCACGGU | 3.25 |
| UUUUCCAUACUCAGAAUGAAAAACUGGAUAUUACGUUUUUGUUUUGGGGUUUUUUUGUACAAAUUUAGCUAAUAGCUACAGGCUGAGAGAAUUGUAACAUAGCAUGACAA | 51.8 |
| UCUGAGCAAUGUCCCCAGUGUCCCCUCUGGUCAUGUCCUGUUUCUGCCUCAGGGAUUGUCUCUGUUCCUUCGCUGAGGCCCUCUACUUAGGGCUGAACAUAGGAUUUAUG | 0.373 |
| AUUAUUCAGGAGGGCUGGGGGGGCUCCCUGGUUCUGAGCAUCAUCCUUUCCCCUCCCCUCUCUUCCUCCCCUCUGCACUUUGUUUACUUGUUUUGCACAGACGUGGGCCU | 1.47 |
| ACUUUUAACCUGGUUUUGCUUUUGCUUUUCCUGACUCCCUUUGCUCAGAGUCAGUUGCACACCAGUAGGAUGGCAUGCUACGAUCAGUUUCUGUCCUGAAAGCUUUGCCU | 5.57 |
| ACUCUCCCUAGUUCUCAGUAGAAUAGUUCAAACAAUAUUACUUAUGUUAAUUAGAAGGGGCUUUUGUACUCCAUUAAUGCUGUAUUUAGUUUACUAAUAGCUGCUCAGUU | 0.373 |
| GGCACCUAAUGGGGAUGGAACAUUGGUGGAACCGGAGGGAGGGGCCUGAGAGCUGUACCUAUCAGAACCUUGGGUGCUAAGCUGUGCUGAGGGGGAAGACGUGGGACCGG | 0.965 |
| UAGAGUGCAGAGGGGCUCUUUUAUCCAGACCCCUCUUUGUAUCCUGGUGCCCUUGUUGACUGUCUGGGAAGAUGAAUAUACCAGGGUUUCCAAAUCCAGCCCUUUUCGUU | 0.275 |
| UUGGGAGGAGUGAGCAGGCCCCGGGGGAGGGGGAUGAGCGCAGUUUGCUCGCUUUCCUCCCCUGCCGGCCCCCUCCGCCCCCACACACACUCGGGACGUCUUCAUUGAAG | 0.18 |

Set 4 — method: RNA Bind-n-Seq; molecule type: RNA; matrix: in vitro; concentration: 20 nM; notes: 6-mer, flanks averaged, single round; added: 150 mM LiCl; baseline: input library; reading: higher = stronger binding
Target: TAR DNA-binding protein 43, full length, His tag (TARDBP, Homo sapiens, UniProt Q13148, residues 1-414)
| Sequence | 6-mer enrichment (R) |
| --- | --- |
| UCUCAC | 0.83 |
| UUCAUU | 1 |
| CCAACU | 0.862 |
| UACUUU | 1.01 |
| CUGAGA | 0.873 |
| CCGAAA | 0.803 |
| UGUCAU | 0.955 |
| GCUAUG | 0.981 |
| CUUCGC | 0.846 |
| AUUCUC | 0.869 |
| ACCCCC | 1.26 |
| CGCUGU | 0.962 |
| AACAAA | 0.893 |
| CUACCU | 0.886 |
| GACACG | 0.903 |
| GCACAG | 0.915 |
| AACACC | 0.886 |
| UCGCUA | 0.853 |
| UAAAGU | 0.943 |
| UCCUUG | 1.08 |

Set 5 — method: RNA Bind-n-Seq; molecule type: RNA; matrix: in vitro; concentration: 100 nM; baseline: input RNA pool; reading: higher = stronger binding
Target: RING finger protein unkempt homolog, zinc fingers 1-6, SBP tag (UNK, Homo sapiens, UniProt Q9C0B0, residues 30-357)
UniProt Q9C0B0, sequence (30-357, looked up): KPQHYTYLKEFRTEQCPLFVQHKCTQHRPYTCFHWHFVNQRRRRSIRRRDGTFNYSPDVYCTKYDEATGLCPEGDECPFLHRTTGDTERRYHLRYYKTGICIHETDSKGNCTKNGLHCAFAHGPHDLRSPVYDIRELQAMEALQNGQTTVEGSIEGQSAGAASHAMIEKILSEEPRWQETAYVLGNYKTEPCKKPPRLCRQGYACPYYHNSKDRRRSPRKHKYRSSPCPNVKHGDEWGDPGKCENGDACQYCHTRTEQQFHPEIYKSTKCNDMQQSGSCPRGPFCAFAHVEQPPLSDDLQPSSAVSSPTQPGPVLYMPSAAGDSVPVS
Notes: RNA with constant flanks, vertebrate orthologous sites, ends assumed
Shared flanks, not repeated: GGGAGUUCUACAGUCCGACGAUC … CAACAGAGGAUUGAGCAUCA
| Sequence | bound/input enrichment [ratio] |
| --- | --- |
| GAAGGCAGAGCUCUUACAGUCUUAGCUGGGAUAGCGGCAGAUCUGAACUGUAAGAGUUGUUAGUGCAGGGUUUUUUUUUUGGGGGGGGGGUACAAGGCAUUUCUGAAAUUUUAUAAACUU | 2.08 |
| GCAACAAUGAAAAAGCCCUUCUCCCAGCCCCUUUUUCACUAGGAGAUACAAACAUUACCAUAGAAGAGCAAUUAAACUCAAUAAAUUUAUCUUUUCAGGAUGAUCCAGACUCCAGUACAG | 1.46 |
| CUACUAUAAACAACUCAGGGCAGUAUUCUCGGUAUCCUUACAGUAACCUAAAUCAGGGAUUAGUUAACAAUACAGGGAUGAAUCAAAAUUUAGGCCUUACAAAUAACGCUCCAAUGAAUC | 1.12 |
| GUCAUCUGACUGGAUGAAGACUGUUCCAAGUUAUAACCAAACAAAUAGCUCCAUGGACUUUAGAAAUUAUAUGAUGAGAGAUGAAAAUUUGGAACCACUGCCCAAAAACUGGGAAAUGGC | 1.67 |
| UUUGUGGGGAUCGGGGGGUGGGAAGAAGAUGUAUGGAUGUUACUGGCAUUUUUAAGUCUUCAGAGUUUUUCUGUGUUUUUUUUCCCCCCUUCUGUUUUGUCCUUUGCCUUUAAUUAGGUG | 0.228 |
| CAGCCGAUUCUCUCAUCGGACGAGCUGCCCACAUUGCUGUUCUAGACUCUGACAUAUUCUUAGAAAAAUUCUUUCUGGUUGCCGGCCUCAAAUAUUUCCAGUAGGAAUAAAACCAUUGUA | 1.06 |
| AUUCAAACCCGUGGUGCCCUGGCCUCACGUGGAAGGCGUAGAAGUGGACUUGGAGUCUAUUCGAAGAAGGAACAAGGCCAGACAUGAACAAGAGCGCCGCUCCGGAGGAGAGAACCAGAA | 0.213 |
| CUGUUGUUAAGCACUGUGUUCCAGACUGUGUCUGACUUGAGUGUGACCUAGGAGAUUUUAUUGUUUUAUUUUAAUGAAGCCCUGCUUGCCACAGAGCAGCCGGGAGAGCAGCGUCCACCA | 0.75 |
| GUGACUUUGGACGCCCGCAGAGUCUUGGUGCAGAGACUGCUGAGUCCUGGGCCUUGUGAGUUAAGUCUCCGUUCUUUCCGUACGCGAGGCCUCUGUUGCAACUAUGCUUCGCCAGAUCGU | 0.305 |
| CUACUAUAAACAACUCAGGGCAGUAUUCUCGAUAUCCUUACAGUAACCUUAAUCAGGGAUUAGUUAAUAAUACAGGGAUGAAUCAGAAUUUAGGCCUUACAAAUAACACUCCAAUGAAUC | 0.878 |
| UUGUGAAGAGUGGGAAAGAUGAGGUUCUUCUCCCUCCAAGUAAAGCUGACGUAACUUCCUUUUAGUUCUGUCUUUGAAAACAAAGAUGCUCUUUUCUCUUAGUUGUGUGACACCACUAUC | 2.26 |

For quick reference, copied from above (set 1):
| Sequence | E-score |
| --- | --- |
| CTGTTGCA | -0.00151 |
| AAAGAATT | 0.147 |
| ACTAAGTC | -0.146 |
| CGGTCAGC | 0.166 |
| AGTTTATG | -0.00259 |
